# Experimental data pooled from the literature.
# Numbered parts are unrelated; each lists some results of a single study. Positions count from the first letter of the parent shown.

# Study 1
# Target: Centromere-binding protein 1, full length, His-tagged (CBF1, Saccharomyces cerevisiae, UniProt P17106, residues 1-351)
# UniProt P17106, sequence (whole entry, looked up): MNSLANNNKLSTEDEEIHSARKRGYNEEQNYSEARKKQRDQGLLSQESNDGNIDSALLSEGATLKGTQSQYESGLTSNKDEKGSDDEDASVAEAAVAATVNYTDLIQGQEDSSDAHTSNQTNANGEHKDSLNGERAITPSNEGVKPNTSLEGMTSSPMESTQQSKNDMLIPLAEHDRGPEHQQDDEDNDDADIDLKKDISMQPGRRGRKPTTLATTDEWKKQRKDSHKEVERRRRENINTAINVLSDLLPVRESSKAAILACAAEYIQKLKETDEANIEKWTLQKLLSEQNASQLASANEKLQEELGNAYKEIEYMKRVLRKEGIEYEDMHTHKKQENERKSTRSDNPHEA
# Method: competition protein-binding microarray
# Form: double-stranded DNA, one strand shown
# Sample: in vitro
# Concentration: 2 µM
# Setting: whole 60-bp probe, lowest competitor level
# Added: Pho4 competitor, 0.05 µM
# Reading: higher = stronger binding
Oligonucleotide,fluorescence intensity [a.u.]
ATTTCTCAATACCATCACGTGCGATCTAAGAAGATGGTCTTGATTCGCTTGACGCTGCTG,4650
TTGAACTCGCCGCCTCACCTGCCACTACGTCTTCCGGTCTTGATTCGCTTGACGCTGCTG,52
TCGGTGATGGTATTGCTCGTGTTTTTGGTTTGAACAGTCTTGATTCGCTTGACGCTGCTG,83.5
ACCCTTTTTCCTTGCCACGTTTTCACTCAGATCTAAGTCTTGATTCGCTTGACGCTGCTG,132
CGTCCTAGCGATTGAGGAGTGGGTGCCATGAGGAAGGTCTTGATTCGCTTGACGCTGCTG,77.4
TTCGAAAAGATTCACCACGTTTCCGTCGTTATCAGCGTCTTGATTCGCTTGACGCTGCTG,101
AAAGCGGTAATTTGCTGTGTGGGTGCAGATATCTATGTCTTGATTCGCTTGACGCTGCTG,74.2
ATTGCCTTTGGTGTACTCATGACAAGGGTATATTTTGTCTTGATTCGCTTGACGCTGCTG,83.7
TGAATGTAGGTCCATCACGGGCTGCATTTAGTACAAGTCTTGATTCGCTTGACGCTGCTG,124
CTTCTGTAAATTTGAGGTGTGGGTGGACGCGCCCCGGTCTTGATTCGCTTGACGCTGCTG,65.5

# Study 2
# Target: Ras GTPase-activating protein-binding protein 1, RRM domain (G3BP1, Homo sapiens, UniProt Q13283)
# UniProt Q13283, sequence (whole entry, looked up): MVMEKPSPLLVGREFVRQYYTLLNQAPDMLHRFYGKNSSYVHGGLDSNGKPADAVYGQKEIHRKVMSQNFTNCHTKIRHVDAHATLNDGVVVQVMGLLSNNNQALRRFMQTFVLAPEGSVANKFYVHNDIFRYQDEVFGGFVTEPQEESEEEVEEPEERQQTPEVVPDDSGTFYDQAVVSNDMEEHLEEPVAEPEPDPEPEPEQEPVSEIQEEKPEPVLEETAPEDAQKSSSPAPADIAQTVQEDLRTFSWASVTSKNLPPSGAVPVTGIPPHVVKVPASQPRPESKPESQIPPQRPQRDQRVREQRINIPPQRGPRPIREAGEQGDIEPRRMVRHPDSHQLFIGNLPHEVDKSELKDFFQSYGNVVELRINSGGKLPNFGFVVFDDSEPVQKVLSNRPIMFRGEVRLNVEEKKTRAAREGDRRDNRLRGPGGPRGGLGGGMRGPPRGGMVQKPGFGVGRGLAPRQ
# Method: RNA Bind-n-Seq
# Form: RNA
# Sample: in vitro
# Concentration: 1 µM
# Setting: whole 134-nt RNA, ends assumed
# Added: 150 mM KCl
# Reference: input library
# Reading: higher = stronger binding
Oligonucleotide,log2 enrichment
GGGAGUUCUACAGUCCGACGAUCACCAUGCAGGUGGGCAUCUUUGGGAAGUGGGGCAAGGGGGGAAUAGGGAGGGGGGUAACACUUUGGGAACAGGUGGUCCCAGGUCGUUUCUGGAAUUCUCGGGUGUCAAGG,1.01
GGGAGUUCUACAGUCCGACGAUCCCUCAAGUCCUGUGCUACACAUCGUAUGUACCGAAUCGGAGGGGAGGGGAGGAAAGUAUUAUGUUACGCCGUUCGGAUCUGCACUUCCAGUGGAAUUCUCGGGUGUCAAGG,-0.214
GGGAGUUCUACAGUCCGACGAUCCCUCAAGUCCUGUGCUACACAUCGUAUGUACCGAAUCGGUGGUGGAAAAAGGAAAGUAUUAUGUUACGCCGUUCGGAUCUGCACUUCCAGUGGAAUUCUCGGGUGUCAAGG,-0.0741
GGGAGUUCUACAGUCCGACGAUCUCCUGUGCUACACAUCGUAUGUACCGAAUCAAAUUUUUUUAAACCCCCCCAAACCCAAAAAAGUAUUAUGUUACGCCGUUCGGAUCUGCAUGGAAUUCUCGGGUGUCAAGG,-1.01
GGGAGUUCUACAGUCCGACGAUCUAACUUGAGAGGAGGAUCUGAUGGAUAUGGCAGUGGACGUGGAUUUGGGGAUGGCUAUAAUGGGUAUGGAGGAGGACCUGGAGGUGGCAAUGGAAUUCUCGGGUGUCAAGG,0.068
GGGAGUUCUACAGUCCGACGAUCUCCUUUUUUUUUUUCUUUGAAUGUAUUUAUUUCUUGUAGUCUACUGGUGCUGUUGUGACGGAGAGCCAGACGUACAAAAACCGAGCUGGUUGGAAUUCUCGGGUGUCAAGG,-1.49
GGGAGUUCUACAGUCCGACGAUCUCCUGUGCUACACAUCGUAUGUACCGAAUCGGGCCCCCGGGGCCCCCGGGCCCCCGGGGAAAGUAUUAUGUUACGCCGUUCGGAUCUGCAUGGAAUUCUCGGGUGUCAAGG,-0.602
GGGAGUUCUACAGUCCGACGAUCCCUGUGCUACACAUCGUAUGUACCGAAUCGGGGAAAGGGGAAAAAGGGGUUUUUUUGGGGAAAGUAUUAUGUUACGCCGUUCGGAUCUGCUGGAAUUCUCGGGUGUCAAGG,0.682
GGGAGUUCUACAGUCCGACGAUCCCUGUGCUACACAUCGUAUGUACCGAAUCGGGUUUUUUUGGUUUUUUUGGGUUUUUUUGGGAAAGUAUUAUGUUACGCCGUUCGGAUCUGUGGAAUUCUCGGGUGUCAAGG,-0.27
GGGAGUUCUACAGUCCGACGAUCAGUCCUGUGCUACACAUCGUAUGUACCGAAUCGGGAAAAGGGAAAAGGGAAAAGGGGAAAGUAUUAUGUUACGCCGUUCGGAUCUGCACUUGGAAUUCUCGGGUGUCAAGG,0.893

# Study 3
# Target: CCNA2, cyclin fold, Cln2 fusion (human)
# Method: yeast growth competition, sequencing
# Sample: yeast
# Setting: strong parent motif
# Reference: not given
# Reading: higher = stronger binding
# Parent: CDC25A docking peptide (human); PPHRRRLLFACSP
Change,normalised enrichment score
PPHRRRLLFVCSP [A10V],2.55
NPHRRRLLFACSP [P1N],2.67
PPHRRRLLFACSF [P13F],1.59
PPHRRRLHFACSP [L8H],2.33
PPHRRRLLFACSE [P13E],2.56
PPHRRYLLFACSP [R6Y],1.11
PPHRRRLLFMCSP [A10M],3
PPHRRRLLFARSP [C11R],1.88
PPHRRCLLFACSP [R6C],0.957
QPHRRRLLFACSP [P1Q],2.37
PPPRRRLLFACSP [H3P],3.94
PPHRRPLLFACSP [R6P],-0.321
PPHRRRLLNACSP [F9N],1.58
PPHRAAAAFACSP [R5A R6A L7A L8A],0.232
PPHRRRLLFWCSP [A10W],2.49
PWHRRRLLFACSP [P2W],2.04
PPHRRRLLFECSP [A10E],3.82

# Study 4
# Target: ABI1, truncated, D143A, DHFR fusion (Arabidopsis thaliana)
# Method: DHFR PCA, deep sequencing
# Sample: yeast
# Setting: methotrexate growth selection, single substitutions
# Added: (+)-ABA 58 µM
# Reference: wild-type fitted maximum
# Reading: higher = stronger binding
# Parent: PYL1, truncated, DHFR fusion (Arabidopsis thaliana); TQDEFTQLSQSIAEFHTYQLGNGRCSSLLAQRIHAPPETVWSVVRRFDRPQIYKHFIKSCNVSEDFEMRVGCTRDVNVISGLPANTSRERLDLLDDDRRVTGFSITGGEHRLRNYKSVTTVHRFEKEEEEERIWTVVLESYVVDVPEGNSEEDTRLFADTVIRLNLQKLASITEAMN
Change,relative binding score
S171I,75.3%
I57M,37.2%
P37T,57.5%
R49K,88.3%
H110F,-4.03%
F47Q,7.13%
I172H,68%
T73Q,87%
K168D,21.9%
Q19P,95.2%
T73Y,90.4%
